Measurements gathered from unrelated publications.
Each numbered part is a random draw from the data of one study; scales do not carry over between parts.

Study 1 — method: protein binding microarray; molecule type: double-stranded DNA, one strand shown; sample: in vitro; concentration: not given; baseline: not given; reading: higher = stronger binding
Target: Histone acetyltransferase KAT6A, both winged helices, GST fusion (KAT6A, Homo sapiens, UniProt Q92794, residues 1-181)
Notes: 8-mer, flanks averaged, mean of 2 arrays, mostly near background
Residues (chain): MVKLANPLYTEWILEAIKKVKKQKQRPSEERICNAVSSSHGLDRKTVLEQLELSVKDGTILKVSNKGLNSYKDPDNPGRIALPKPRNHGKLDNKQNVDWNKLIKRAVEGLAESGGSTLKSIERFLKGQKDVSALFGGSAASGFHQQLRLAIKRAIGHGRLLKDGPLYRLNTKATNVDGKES
`AGGGCTGA` has an E-score of -0.191.
With `GGGTTGAA` the E-score was -0.0641.
With `TAGCTGAA` the E-score was -0.164.
With `CCGATAGA` the E-score was 0.0679.
With `TCTTAAGA` the E-score was -0.0897.
The E-score of `CATCTGTC` is reported as -0.0976.
`AACTTCAA` has an E-score of -0.145.
`AGCGGTGC` has an E-score of 0.112.
For `GACCGCAC`, the E-score was 0.154.
`CTAAATCA` has an E-score of -0.145.
For `ACAGAGTC`, the E-score was 0.0104.
`CAGTGTCA` gave an E-score of -0.0325.
`ATAAGATC` has an E-score of -0.0681.
`GCTAATAC` gave an E-score of 0.0167.
For `GGAACGTA`, the E-score was -0.0426.
`ACGTTTAC` has an E-score of 0.0227.
`AACAGCAT` has an E-score of -0.00821.
`GGTGAAAC` gave an E-score of 0.0732.
`CACGTTGA` has an E-score of -0.113.
The E-score of `CCGGGTCC` is reported as 0.226.
With `CTATATAG` the E-score was -0.201.
`GCACTTAA` gave an E-score of 0.0178.
The E-score of `TCAGAGGA` is reported as -0.0694.
For `CCACCGAC`, the E-score was 0.0214.

Study 2 — method: aptamer microarray, sandwich; molecule type: DNA with 2'F-ANA; sample: in vitro; concentration: 200 nM; with: Cy3 exosite-II aptamer, 400 nM; reading: higher = stronger binding; oligonucleotide: GGTTGGTGTGGTTGG
Target: Prothrombin, mature alpha-thrombin (F2, Homo sapiens, UniProt P00734)
Notes: whole 15-mer aptamer, many near background
For `2'F-ANA at 1 2 4 7 8 9 11 12 13 15`, “mean fluorescence intensity” read 166 a.u.
Under “mean fluorescence intensity”, `2'F-ANA at 2 4 6 7 8 14` is recorded as 134 a.u.
`2'F-ANA at 4 6 8 10 12 13 14`: “mean fluorescence intensity” 151 a.u.
Under “mean fluorescence intensity”, `2'F-ANA at 1 2 3 4 8 9 10 11 12 13 15` is recorded as 62.1 a.u.
`2'F-ANA at 1 5 7 9 10 12 13`: “mean fluorescence intensity” 65.8 a.u.
`2'F-ANA at 1 9 11 15` — result for “mean fluorescence intensity”: 152 a.u.
Under “mean fluorescence intensity”, `2'F-ANA at 4 6 7 10 14 15` is recorded as 55.6 a.u.
For `2'F-ANA at 1 3 4 7 8 10 12 15`, “mean fluorescence intensity” read 85.2 a.u.
For `2'F-ANA at 2 4 5 6 9 12 14 15`, “mean fluorescence intensity” read 49.4 a.u.
For `2'F-ANA at 1 4 5 12 14 15`, “mean fluorescence intensity” read 77.4 a.u.
For `2'F-ANA at 2 3 4 5 6 7 8 11 12 13 14`, “mean fluorescence intensity” read 53.4 a.u.
Under “mean fluorescence intensity”, `2'F-ANA at 4 6 9 10 13` is recorded as 64.6 a.u.
For `2'F-ANA at 2 5 7 10 12 14`, “mean fluorescence intensity” read 56.7 a.u.
Under “mean fluorescence intensity”, `2'F-ANA at 1 6 10 13 14` is recorded as 49 a.u.
`2'F-ANA at 2 3 4 5 7 9 10 11 13 15` — result for “mean fluorescence intensity”: 87.5 a.u.
`2'F-ANA at 1 2 3 4 7 10 11 13 14 15`: “mean fluorescence intensity” 54.3 a.u.
`2'F-ANA at 1 6 7 8 10 13 15` — result for “mean fluorescence intensity”: 52.5 a.u.
`2'F-ANA at 1 3 7 8 9 10 11 12 13 15` — result for “mean fluorescence intensity”: 127 a.u.
`2'F-ANA at 2 3 4 5 10 12 14` — result for “mean fluorescence intensity”: 65.3 a.u.
`2'F-ANA at 4 6 7 8 9 11 12 15` — result for “mean fluorescence intensity”: 350 a.u.
`2'F-ANA at 1 3 8 10 11 15` — result for “mean fluorescence intensity”: 83.5 a.u.
Under “mean fluorescence intensity”, `2'F-ANA at 3 4 6 7 9 11 13 14` is recorded as 233 a.u.
`2'F-ANA at 1 2 3 4 5 8 11 15`: “mean fluorescence intensity” 53.9 a.u.
Under “mean fluorescence intensity”, `2'F-ANA at 7 14 15` is recorded as 252 a.u.
`2'F-ANA at 3 4 6 8 9 11 12 14 15`: “mean fluorescence intensity” 229 a.u.

Study 3 — method: RNA Bind-n-Seq; molecule type: RNA; sample: in vitro; concentration: 365 nM; baseline: no-protein control; reading: higher = stronger binding
Target: RNA binding protein fox-1 homolog 2, RRM domain, GST-SBP tag (RBFOX2, Homo sapiens, UniProt O43251-10, residues 100-194)
Notes: natural RNA segment, single round, ends assumed
All sequences stand within: GGGAGUUCUACAGUCCGACGAUC … UGGAAUUCUCGGGUGCCAA
Target sequence (chain): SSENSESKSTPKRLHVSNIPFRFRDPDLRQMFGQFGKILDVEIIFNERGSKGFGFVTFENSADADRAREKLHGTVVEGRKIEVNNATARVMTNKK
`CUGCGGUAGCUCCCUCCCUUCAGAGUUACAUCAUUAUCCUGACUCUGUGUAGGUAAAUUUCCGUGAAAUUUUUGUACAAAAAAAAAGGUAAUGAAAGAACGUUGCAAAGA` — result for “RBNS enrichment (R)”: 0.605.
`GUGAAAGGUGCUGAUGGCCCUCAUCUCCAGCUAACUGUGGAGAAGCCCCUGGGGGCUCCCUGAUUAAUGGAGGCUUAGCUUUCUGGAUGGCAUCUAGCCAGAGGCUGGAG` — result for “RBNS enrichment (R)”: 0.442.
`UGCAGGUUCUGAAGAAUGCUCGGGCCAUGGCAGAUGCCCUGCUAGAGCGAGGCUACUCACUGGUAUCAGGUGGUACUGACAACCACCUGGUGCUGGUGGACCUGCGGCCC`: “RBNS enrichment (R)” 0.266.
For `CUUGUCCUGCUCUCUUCAGGAGGCCCUGGUGUCAGGCAGGUUUGCCAGUGAAGACUUCUUGGGUAGUUUAGAUCCCAUGUCACCUCAGCUGAUAUUAUGGCAAGUGAUAU`, “RBNS enrichment (R)” read 0.432.
`GGGCAGAACAUAUGGGUUAAAUCUCGGUAGAGAGUUUCCCUCAUCCUCUAUCCGUAAGUGUCCUUCCAUGCAAGGUCCCACUCUAGGUGAUAGACAGGGACCCCUUCUAC`: “RBNS enrichment (R)” 0.207.
For `GCUAUUUCGUGGAACUUGGAACACAGCCUGCCACCCAGUGAAGUGUCCAGACCAUUGUCUUCCAACCCCAGCUGGCCUCUAGAACACCCACUGGCCAGUCCUAGAGCUCC`, “RBNS enrichment (R)” read 0.634.
For `CCCAGGGGGCAGCACAGCCGGCCCCCGGCCCACGUUUUCGGUGGAAAAUUAGAGUGAACAAGAACACCCCUGCCGACUCCCAGCCCGGCCAAAAAGACAAAACACAUAGA`, “RBNS enrichment (R)” read 0.506.
`AAAGCCUCUCACUUGAACCCAAACCAGAGUACUCUUACUGCCUCUUUUCUAAAUGUUCAGGAAAAGCAUUGCCAGUUCAGUCUUUUCAAAAUGAGGGAGAAACAUUUGCC`: “RBNS enrichment (R)” 0.347.
Under “RBNS enrichment (R)”, `UUCCUACCUGGGCUGGUUUCUUUUCUAUAGGCUGUCUUGUCUUUCUUAUGCUAACCACUAUUUUAAAAUGAAAGACAAAGCUCUUUCAGAAGUUUCUCUUGGCUGUUUUA` is recorded as 0.58.
`UAGACAUUCCUUAAGUAUUUGUAUUUAUUUAUGAUUAUCAAUUUUACAUAACAUUAAUAUUGUAUCAGACCUCCUUAUGAAAAUGAGUAUGGAUGUGCACAGUAUGUUUG` — result for “RBNS enrichment (R)”: 0.633.
`AAAGGAAGGUACAGAUGUUUACAGUGGUGCCCCAGGUGACUCGUUCUCACCACAACAAAAGCAACUAAUUGGAAACUAGAUGUGUUCAAUAAUAGAUUUCCUCUUUUUUG`: “RBNS enrichment (R)” 0.461.
`UAACCACUUGGGCUAGGACACAGGAGGAAAGGAAGGCACUGUAUUUCCUAUGAGCUCUCUGCUCAGAGCAGCUGUCUGUGGUCCCGUGGGUCCUGGAUUCUGUGAUGGUA` — result for “RBNS enrichment (R)”: 0.261.

Study 4 — method: RNA Bind-n-Seq; molecule type: RNA; sample: in vitro; concentration: 1 µM; notes: whole 134-nt RNA, ends assumed; with: 150 mM KCl; baseline: input library; reading: higher = stronger binding
Target: Ras GTPase-activating protein-binding protein 1, RRM domain (G3BP1, Homo sapiens, UniProt Q13283)
Chain of UniProt Q13283 (whole entry, looked up): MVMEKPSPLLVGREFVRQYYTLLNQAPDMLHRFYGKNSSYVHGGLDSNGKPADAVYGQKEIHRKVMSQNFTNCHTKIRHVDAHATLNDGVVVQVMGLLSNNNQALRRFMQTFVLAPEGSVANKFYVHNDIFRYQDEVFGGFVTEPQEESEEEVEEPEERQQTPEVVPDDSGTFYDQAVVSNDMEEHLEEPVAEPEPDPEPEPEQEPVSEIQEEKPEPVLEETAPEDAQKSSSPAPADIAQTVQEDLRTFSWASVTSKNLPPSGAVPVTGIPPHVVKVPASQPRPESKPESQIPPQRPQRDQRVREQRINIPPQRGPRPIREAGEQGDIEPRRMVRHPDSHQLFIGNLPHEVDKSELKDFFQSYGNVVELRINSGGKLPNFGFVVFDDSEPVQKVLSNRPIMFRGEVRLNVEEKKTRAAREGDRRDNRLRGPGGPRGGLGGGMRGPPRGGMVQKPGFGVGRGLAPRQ
All sequences stand within: GGGAGUUCUACAGUCCGACGAUC … UGGAAUUCUCGGGUGUCAAGG
The log2 enrichment of `UGGGAGGUGGAUUUUGUUUAUUUUUUUAGCUCAUUUCCAGGGGUGGGAAUUUUUUUUUAAUAUGUGUCAUGAAUAAAGUUGUUUUUGGAA` is reported as 1.05.
For `ACCAUGCAGGUGGGCAUCUUUGGGAAGUGGGGCAAGGGGGGGAAAAGGAGGGGGGUAACACUUUGGGAACAGGUGGUCCCAGGUCGUUUC`, the log2 enrichment was -0.357.
`UCAAGUCCUGUGCUACACAUCGUAUGUACCGAAUCGGGAAAGGGAAAGGGAAAGGAAAGUAUUAUGUUACGCCGUUCGGAUCUGCACUUC` has a log2 enrichment of -0.191.
`GCAGGAAGUAAAAACAAAUGGAAAUGCUUCGGAUAGUGGCAGGGGUGGGGGUUGCUAAGGAAAGGGGGGGAUGGGAGUGGGUAAAGAGUU` has a log2 enrichment of 1.58.
For `CCUCAAGUCCUGUGCUACACAUCGUAUGUACCGAAUCGGCCGGCCGGGGCCGGAAAGUAUUAUGUUACGCCGUUCGGAUCUGCACUUCCA`, the log2 enrichment was -0.485.
With `UGGCCCUGGUGGCAUGCGGGGAGGAAGAGGUGGCCACAUGGAUCGUGGUGGUCCCGGUGGAAUGUUCAGAGGUGGCCGUGGUGGAGACAG` the log2 enrichment was 0.991.
For `UGGGAGGUGGAUUUUGUUUAUUUUUUUAGCUCAUUUCCUGGGGUGGGAAUUUUUUUUUAAUAUGUGUCAUGAAUAAAGUUGUUUUUGAAA`, the log2 enrichment was 1.79.
With `CACAGACAGCACGCACCCACACAGACACAGAGGGAAGGGGUUGGGAUGGGGACAGGGUGCACAGCAGGGCGGGGUAGGACCCCAGCCCCU` the log2 enrichment was -0.207.
The log2 enrichment of `UUGACAUGAAGACAAUGGAGACUGCAGAGAAACUGGCUAGAUUUGUUGCUCAGGUGGGACCAGAGAUCGAACAAUUCAGCAUAGAAAACA` is reported as -0.0252.
`UGGCCCUGGUGGCAUGCGGGGAGGAAGAGGUGGCCUCAUGGAUCGUGGUGGUCCCGGUGGAAUGUUCAGAGGUGGCCGUCGUGGAGACAG` has a log2 enrichment of 1.09.
`GCAGGAAGUAAAAACAUAUGGAAAUGCUUCGGAUAGUGGCAGGGGUGGGGGUUGCUAAGGAAAGGGUGGGAUGGGAGUGGGUAAAGAGUU` has a log2 enrichment of 1.17.
With `CCUGUGCUACACAUCGUAUGUACCGAAUCGGUUUUUUGGGUUUUUUGGGGUUUUUUGGGGAAAGUAUUAUGUUACGCCGUUCGGAUCUGC` the log2 enrichment was -0.296.
With `UCCUGUGCUACACAUCGUAUGUACCGAAUCGGGGAAAAAAAGGGGUUUUUGGGGUGGGGAAAGUAUUAUGUUACGCCGUUCGGAUCUGCA` the log2 enrichment was 0.843.
`AAGUCCUGUGCUACACAUCGUAUGUACCGAAUCGGGGAAAGGGAAAGGGGAAAGGGGAAAGUAUUAUGUUACGCCGUUCGGAUCUGCACU` gave a log2 enrichment of 0.495.

Excerpt of the above (study 1):
`ATAAGATC` has an E-score of -0.0681.
`GCTAATAC` gave an E-score of 0.0167.
For `GGAACGTA`, the E-score was -0.0426.
`ACGTTTAC` has an E-score of 0.0227.
`AACAGCAT` has an E-score of -0.00821.
`GGTGAAAC` gave an E-score of 0.0732.
`CACGTTGA` has an E-score of -0.113.
The E-score of `CCGGGTCC` is reported as 0.226.
With `CTATATAG` the E-score was -0.201.
